Measurements pooled from the literature.
Parts stem from different laboratories: compare values within a part only. Changes are numbered by the printed parent chain.

Set 1 — technique: RNA Bind-n-Seq; form: RNA; medium: in vitro; tested at: 365 nM; reference: no-protein control; reading: higher = stronger binding
Target: RNA binding protein fox-1 homolog 2, RRM domain, GST-SBP tag (RBFOX2, Homo sapiens, UniProt O43251-10, residues 100-194)
Setting: natural RNA segment, single round, ends assumed
Construct (chain): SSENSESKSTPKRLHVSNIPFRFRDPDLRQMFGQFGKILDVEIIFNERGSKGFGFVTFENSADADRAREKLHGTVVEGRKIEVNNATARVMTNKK
Oligonucleotide	RBNS enrichment (R)
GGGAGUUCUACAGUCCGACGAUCUUUCAAUAACAAAAUAUCGUAAGUAGAAUGCUUUUGUGCCUUUGGAUACAAGAUUAAUCUUUAGAAAUUUUGAAUUUUCUACUUGAGAUAUAAAAAUUCAGUAAAAUGUAUGGAAUUCUCGGGUGCCAA	0.843
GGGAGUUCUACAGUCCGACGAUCCGUUUGAUUAUUUUGUCUGUCUCCUAUAUAGAUCUGUUUUGUCUAGUGCUAUGAAUGUAACUUAAAACUAUAAACUUGAAGUUUUUAUUCUAUAUGCCCCUUAAUAGACUUGGAAUUCUCGGGUGCCAA	0.559
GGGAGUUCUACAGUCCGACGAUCAGCUUGGGGUGUGACUGUGGGGAGGACUCCAUCCACCUCAUCACUGGACUGCAUGGGGAGGCAGCAGAGCGGGGUCCCCUCUGUGCUUCGACUACUGCUCCUGUGGCAGGUGGAAUUCUCGGGUGCCAA	1.23
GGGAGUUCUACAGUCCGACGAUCCCCCCUCUCUGUGGCAGUUUCAUAUUUGCUAAUACGAAUUUGCUCAUUAAACAUUUUGUUGUAUUUUACUUUAUGGAUCCUCAUCUGUGUCCAGUGUGUCCGCCCGUCUCUGGAAUUCUCGGGUGCCAA	0.916
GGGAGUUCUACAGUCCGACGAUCCAUGAUAACGCUACUGUGACGCUCUCACUGGGAAGCUGGGUGGCGAGAACUUUCUGGACGUCGAUGUUAUCUCAAAGGAAAGCUAUGCAUUGCUGCUUCUUUGUUACCUUUGGAAUUCUCGGGUGCCAA	0.421
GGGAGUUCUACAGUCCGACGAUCUGCAGUAAAAACAAAGGACAACCCAGCCAAGCAGAGGAAGAAGCUGCCGAAGGGGACAGACUCCACUGCCAGACGGCCAGCCGUUUGCUGUCCUGCCGCCCGGCUCAGUCUGGAAUUCUCGGGUGCCAA	0.229
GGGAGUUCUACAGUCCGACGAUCUAGAGCUUCUGGCACUUGGAGACUUGUAUGAAAGAUGGCUGUGCCUCUGCCUGUCUCCCCCACCGGGCUGGGAGCUCUGCAGAGCAGGAAACAUGACUCGUAUAUGUCUCUGGAAUUCUCGGGUGCCAA	0.585
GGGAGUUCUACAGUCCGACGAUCAUUCCAGAAUGGGGAUAGGCUGAAACCCCCUUCCAGCCUCUGGAAGACACUGGCCUGCAUCAGUUAGAGUCAGAGCAAGUGUCACUUCACAGGGAAAAGAAGGAUUAUAUUGGAAUUCUCGGGUGCCAA	0.227
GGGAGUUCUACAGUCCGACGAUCUUGAAAAAGCAACCCAGUCAGCUGACUUCCUCGUGCAAUGUGUUAAACUGUGAACUCUGCCCAUGUGUCAGGAGUGGCUGUCUCUGGUCUCUUCCUUUAGCUGACAAGGAUGGAAUUCUCGGGUGCCAA	0.622
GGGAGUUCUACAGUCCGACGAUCGGUAUAGCUUGGGUCCCUUUUCCUGCAAGGCCCCAUGGGGCAGAAUAUAAUAAAUAUUCUGAGUGAGAGUGUGGUCUUUUUCUGAUCUUCCUCAGCUUCCGUAAGUUGCAUGGAAUUCUCGGGUGCCAA	1.22
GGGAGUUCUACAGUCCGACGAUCGAGAAACCCAUUCCACAUUAACAAAUUUAUUACAGUACAGGGAACAUGGAAUAAAGGAAAGUUUACUCUUCUGAUUAUAAGCUGAGGAUGCUAUGUUGCAGUUUGUUUGCUGGAAUUCUCGGGUGCCAA	1.43
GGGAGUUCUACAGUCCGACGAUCGUUCCCUUAUUCUGGGGAUUACAAUGCUUUUAUCGUUUCAGGCUUCAUUUUAGCUUCAAAACAAGCUGGGCACACUGUUAAAUCAUGAUUUUGCAGAACCUUUGGUUUUGUGGAAUUCUCGGGUGCCAA	0.321

Set 2 — technique: universal PBM; form: double-stranded DNA, one strand shown; medium: in vitro; tested at: 600 nM; reading: higher = stronger binding
Target: Sal-like protein 4, full length isoform A (SALL4, Homo sapiens, UniProt Q9UJQ4, residues 1-1053)
UniProt Q9UJQ4, sequence (whole entry, looked up): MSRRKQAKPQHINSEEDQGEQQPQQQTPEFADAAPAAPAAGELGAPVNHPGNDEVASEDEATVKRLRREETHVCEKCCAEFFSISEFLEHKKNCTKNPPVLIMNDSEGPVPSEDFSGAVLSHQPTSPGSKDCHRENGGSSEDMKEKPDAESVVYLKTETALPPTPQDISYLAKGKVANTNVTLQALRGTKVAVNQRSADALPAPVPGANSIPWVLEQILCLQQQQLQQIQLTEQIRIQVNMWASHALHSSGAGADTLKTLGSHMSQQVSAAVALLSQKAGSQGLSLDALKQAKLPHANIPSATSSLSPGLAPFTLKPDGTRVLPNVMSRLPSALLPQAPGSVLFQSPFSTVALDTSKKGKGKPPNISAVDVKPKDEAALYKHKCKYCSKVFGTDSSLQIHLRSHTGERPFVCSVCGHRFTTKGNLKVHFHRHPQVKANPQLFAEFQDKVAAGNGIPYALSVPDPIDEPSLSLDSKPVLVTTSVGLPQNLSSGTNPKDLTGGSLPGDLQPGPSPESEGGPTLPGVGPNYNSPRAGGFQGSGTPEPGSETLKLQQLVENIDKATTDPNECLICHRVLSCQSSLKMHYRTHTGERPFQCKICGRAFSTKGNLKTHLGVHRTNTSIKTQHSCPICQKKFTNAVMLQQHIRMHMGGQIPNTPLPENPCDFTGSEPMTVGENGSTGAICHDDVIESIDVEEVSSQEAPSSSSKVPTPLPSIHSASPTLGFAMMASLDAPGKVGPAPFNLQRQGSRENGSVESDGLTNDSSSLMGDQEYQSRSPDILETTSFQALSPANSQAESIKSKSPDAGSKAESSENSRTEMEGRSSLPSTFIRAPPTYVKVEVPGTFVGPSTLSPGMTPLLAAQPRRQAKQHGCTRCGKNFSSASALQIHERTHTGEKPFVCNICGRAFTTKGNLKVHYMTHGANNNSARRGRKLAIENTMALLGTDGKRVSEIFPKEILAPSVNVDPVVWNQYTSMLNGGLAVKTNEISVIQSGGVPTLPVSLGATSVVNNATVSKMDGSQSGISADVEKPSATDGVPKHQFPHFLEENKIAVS
Setting: 8-mer, flanks averaged, mean of replicates
Oligonucleotide	E-score
CCGAGGCG	-0.328
CAGTATAA	0.293
GCTAAAGA	0.0691
AACCAGTG	-0.162
GTCTTCCA	-0.0588
GGCAGGAC	-0.378
CTGTTGCA	-0.0733
AATCGAAT	0.258
CTGTTATA	0.273
ATAGTCGA	0.0962

Set 3 — technique: DHFR PCA, deep sequencing; medium: yeast; together with: (+)-ABA 710 µM; reference: wild-type fitted maximum; reading: higher = stronger binding
Target: ABI1, truncated, D143A, DHFR fusion (Arabidopsis thaliana)
Setting: methotrexate growth selection, single substitutions
Starting sequence: PYL1, truncated, DHFR fusion (Arabidopsis thaliana); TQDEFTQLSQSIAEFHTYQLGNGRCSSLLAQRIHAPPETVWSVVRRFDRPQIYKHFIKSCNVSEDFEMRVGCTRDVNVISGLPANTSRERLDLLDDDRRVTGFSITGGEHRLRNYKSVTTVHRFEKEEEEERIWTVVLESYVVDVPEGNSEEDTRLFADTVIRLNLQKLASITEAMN
Variant	relative binding score [%]
N165F	5.91
I133Q	119
R111T	49.3
L20E	102
G148V	71.6
L8P	71.6
S87Y	27.6

Further values, each from its own experiment
Molecule	target	assay	test system	setting	scale	endpoint	result
PhoQ, residues 284 288 289 292 302 303 TYGVAM	PhoP, residues 12 14 15 18 19 GHCSL (Escherichia coli, UniProt P23836)	Sort-seq, measured: YFP reporter	E. coli	PhoQ-PhoP variant library, together with: 10 µM Mg2+	reference: high Mg2+ state, higher = stronger signaling	fold induction	18.2

Excerpt of the above (set 2):
Oligonucleotide	E-score
GTCTTCCA	-0.0588
CTGTTGCA	-0.0733
ATAGTCGA	0.0962
AACCAGTG	-0.162
